Assay results of several laboratories.
A part holds a random share of what one study measured.

Series 1 — method: protein-binding microarray; form: double-stranded DNA, one strand shown; medium: in vitro; concentration: 2540 nM top; setting: 60-bp whole probe; added: salmon DNA 0.4 mg/ml; relative to: random background probes; direction: higher = stronger binding; measurement: fitted relative affinity; constant ends, left off below: GCCTAGCAC … GTCTTGATTCGCTTGACGCTGCTG
Target: Interferon regulatory factor 3, full length, phosphomimetic (IRF3, Homo sapiens, UniProt Q14653, residues 1-427, S386D/S396D/S398D/S402D/T404D/S405D)
Construct (chain): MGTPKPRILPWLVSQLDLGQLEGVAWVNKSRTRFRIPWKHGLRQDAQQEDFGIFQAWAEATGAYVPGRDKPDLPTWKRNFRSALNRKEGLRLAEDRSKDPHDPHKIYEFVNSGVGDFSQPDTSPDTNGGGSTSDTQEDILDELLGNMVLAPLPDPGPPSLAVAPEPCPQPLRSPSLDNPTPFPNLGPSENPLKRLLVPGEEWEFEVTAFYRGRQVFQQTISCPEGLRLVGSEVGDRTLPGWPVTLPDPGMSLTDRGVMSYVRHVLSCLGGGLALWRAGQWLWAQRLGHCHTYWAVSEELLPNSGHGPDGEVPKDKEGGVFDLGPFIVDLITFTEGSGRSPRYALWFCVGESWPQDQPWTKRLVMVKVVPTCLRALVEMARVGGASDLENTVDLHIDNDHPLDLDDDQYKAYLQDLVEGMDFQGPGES
TTAGAACTGAGACTAGATTAGTGCTAG: -0.302 z-score
GACGGTCTCCTTATCCTGATGTGCTAG: 2.78 z-score
TTAGGACTTCTACTGCTTTAGTGCTAG: -0.513 z-score
GGTCATGTCTGTGTCACAGAGTGCTAG: 0.323 z-score
GCAGACTACCTATGAGTATCGTGCTAG: 0.133 z-score
GACGATTTCTGGTTTCGAGACGTGCTA: 2.36 z-score
GACGGTTTCGACACTGGCGACGTGCTA: 3.36 z-score
GACGAGCTGAGTTTCGAGACGTGCTAG: 1.03 z-score
GACGGTTTCCTATTCCTGACGTGCTAG: 7.08 z-score
GACGGTTTCCTACTGCTGATGTGCTAG: 4.97 z-score
GACGGACTGGACATTCGGGACGTGCTA: -0.417 z-score
TTAGGACTGCTTTTCGTTTAGTGCTAG: 1.12 z-score
TTAGGTATAGGTCTCGGTTAGTGCTAG: -0.322 z-score
GACGGTTTCGACTTTCGCGACGTGCTA: 3.98 z-score
GACCGTATCGGGACTGGGGACGTGCTA: 2.21 z-score
GACGTTTTCGGGTATCGGGACGTGCTA: 2.28 z-score
GTAGGTTTCGACTATCGGTTAGTGCTA: 2.75 z-score
TTAGGTCTTCTTATCCTTTAGTGCTAG: 0.51 z-score
ATAGGTCTCCTTCTCCTTTAGTGCTAG: 4.07 z-score
TCACTTTTCTTTACTGAACTGTGCTAG: 3.24 z-score
GACGAACTGGGGTAGCGAGACGTGCTA: -0.521 z-score
TTAGGTCTCGGTGTCGGTTAGTGCTAG: 0.877 z-score
TTTACTTTCTTTTTTTCTTTGTGCTAG: 6.81 z-score
TTAGTTTTCGGTATCGGTTAGTGCTAG: 6.04 z-score
GACGGTTTCAGTTTCGGGACGTGCTAG: 7.37 z-score

Series 2 — method: protein binding microarray; form: double-stranded DNA, one strand shown; medium: in vitro; concentration: not given; relative to: not given; direction: higher = stronger binding; measurement: E-score
Target: Histone acetyltransferase KAT6A, winged helix 2, GST fusion (KAT6A, Homo sapiens, UniProt Q92794, residues 85-181)
Setting: 8-mer, flanks averaged, mean of 2 arrays, mostly near background
Construct (chain): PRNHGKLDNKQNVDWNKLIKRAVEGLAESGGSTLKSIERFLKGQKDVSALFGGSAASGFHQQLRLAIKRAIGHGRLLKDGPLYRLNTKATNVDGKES
TCGCCTCA: 0.186
GACGCTTA: -0.17
CAGCCCCA: 0.018
GACTGATA: -0.184
CAGTTTAC: 0.0265
CATAGCGC: -0.00767
GGCGCAGA: 0.0711
AATGATGA: 0.0245
AGAAATCG: -0.0187
ACGGTGAG: 0.0897
CGGCTAGA: 0.0706
GCCCTTCA: -0.0763
CAGATGCC: -0.0799
ACTGTCGA: -0.132
CCTTATAC: -0.00428
CAACAATG: 0.0132
ATTACTTA: -0.162
ACTACCAC: -0.116
AACCCCCC: -0.338
ATGTGGCC: -0.0612
AAGGAGGC: -0.0567
CGTCAGAC: -0.145
AGCCGGCA: 0.164

Series 3 — method: RNA Bind-n-Seq; form: RNA; medium: in vitro; concentration: 365 nM; relative to: no-protein control; direction: higher = stronger binding; measurement: RBNS enrichment (R)
Target: RNA binding protein fox-1 homolog 2, RRM domain, GST-SBP tag (RBFOX2, Homo sapiens, UniProt O43251-10, residues 100-194)
Setting: natural RNA segment, single round, ends assumed
Constant ends, left off below: GGGAGUUCUACAGUCCGACGAUC … UGGAAUUCUCGGGUGCCAA
Residues (chain): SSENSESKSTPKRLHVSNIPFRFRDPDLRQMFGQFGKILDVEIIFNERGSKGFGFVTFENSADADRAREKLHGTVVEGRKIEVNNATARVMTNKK
GCAAUGAGGUCGGGUUUUAUAUGCAACUUAUUGUAUCUGAAUUCCUGUAGCACACCUCAUAGGUAUGAUUUUUUUAAAUUAAAGAAUUCAGAAUAAACAUUUUUUGAUCC: 0.852
CCUCUUUCACCUUUCCCUAAAGACCCUAAAUCUGAGGAAUCAACAGGGCAGCAGAUCUGUAUAUUUUUUUCUAAGAGAAAAUGUAAAUAAAGGAUUUCUAGAUGAGUGAG: 0.351
GUGCUUCACCCAGUUUGGAACUUUAAUCUGUAACCCAUGGAUCCACAGAUUUUCUUGGGAGCUUGAAUAGCCCUUCUUGGACAAUGGGGUCUGGAAAUAGGGCUGUCUGC: 0.577
GAGAAAAAAACACACAUCAAUUAAAGGAGACAAAAAGAGGCAGAGCGAGUAGAGAGCAGCCCUCAUUCACCACCUGGUCCCAGACGUGCUUCAGUCCUCGUCCUCUCUUU: 0.37
CAAAUCCUGUCGGUCUCCAGUUGGUUAUCUGAAUAGUGUCACCAAUUCCACCAAGACAGUGCUGAGAUUGGAAAAGGGCACUCAUUUGGAUUGCCUUACUUCUCUUGCCU: 0.236
UGCUUUUUAAUUAUUAUUAUUAUUUUUUUUACAUUAGGACAUUUUAUGUGACAACUGCCAAAAAAGUAUUUUUAAGAAUUUAAGCGAAAUAAACAGUUACUCUUUGGUAA: 0.523
AAGUGUGGAUGCAGAGAGGUGGAGCCCAGGAAGGGUCUCUGCUUAGGCUGCAGGGGUGCCAAUGGCAGAGGCACUGGUAGAGAUCAUUUGGACACUGGAGUUGAAAGUUA: 1.52
GGGUGACGUGAUGAGAGGUUUGAGAAAUGGGUGAAAUGAAAUGGGGGAUAUGUAGGUCAAAUCAAAUUAAAGAUGAUUUUUUUAAUGUGAAUAAAGUUAUGUUCUGAUAG: 3.1
UAAUGCAGACUGUAUUCUUGCAGCGUGUUGUUUCCUUUGUGACUCAAGGUUGAAUUAAAAUGCCUGUGAACUGCAAACUUGCUUAUGAUUGACUUGGUGCAAUAAAGUUC: 0.587
AAGCAUAUGUGCAUGCGUGCGUGUGUAUAUAAAUGCCUUUUCCAUAUCUUAAAUGUCCCUGAUGAGGAGAGCAGUCAUCAAUUAAAUAUAUAAGCUCUUAAAAUGAGAAU: 0.98
UGGGACUUGAAUCCAGAGACGUCCUCCAGGAACCCCUCAACGAAGCUGUGAAUGAAGAGGUUUCCUCUUUAAACCUGUCUGGUGGGCCCCCAGAUAUCCUCACCUCAGGG: 0.178
GUGCUGAUGUCCAAGACUUAACCAGAAGGGAUCUGGGAGGGCCUAGAGGUGGGCUCAGAAUUCUAGUGCUAGGUAACACCCUAGGACACACCACAGCCCUAACACACCAG: 0.83

Series 4 — method: protein-binding microarray; form: double-stranded DNA, one strand shown; medium: in vitro; concentration: 0.8 µM; setting: whole 60-bp probe, no competitor; direction: higher = stronger binding; measurement: fluorescence intensity; constant ends, left off below: … GTCTTGATTCGCTTGACGCTGCTG
Target: Centromere-binding protein 1, full length, N-terminal tag (CBF1, Saccharomyces cerevisiae, UniProt P17106, residues 1-351)
Sequence of UniProt P17106 (whole entry, looked up): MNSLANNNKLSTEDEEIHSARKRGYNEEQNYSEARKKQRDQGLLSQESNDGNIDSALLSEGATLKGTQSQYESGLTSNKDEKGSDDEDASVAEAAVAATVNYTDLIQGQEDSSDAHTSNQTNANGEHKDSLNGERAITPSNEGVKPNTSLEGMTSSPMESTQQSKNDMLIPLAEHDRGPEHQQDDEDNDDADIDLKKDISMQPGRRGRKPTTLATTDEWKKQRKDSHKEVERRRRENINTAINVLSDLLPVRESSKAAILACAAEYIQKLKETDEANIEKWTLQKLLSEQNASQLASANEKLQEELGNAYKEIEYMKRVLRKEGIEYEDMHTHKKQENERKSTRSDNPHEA
CTATATTATTTTCATCACCAAACTGTTGGAAGTTTC: 525 a.u.
CTAACATAAGTCGGGAACCTGATGCATCATTCTTTC: 484 a.u.
CTACCCATTATTATATTCGTGACAGTTCGTAACTTC: 559 a.u.
CTATATACGCGGCACCTGAGCAGCACATTAGGTTTC: 631 a.u.
CCTAACTACTATATTCACGTGAAATAGCTTCGTACA: 3400 a.u.
CTATATTATATTGGTCATGATTAATATGACCAATTC: 590 a.u.
GAAAGCACAGATGGTCCCGTGGCACGTACCATCTAG: 1280 a.u.
TGTACGAAGCTATGCTGCGTGGGTATAGTAGTTAGG: 519 a.u.
GAAGAAAACTATGCTAACATGATGCCACTACGTTAG: 488 a.u.
CTATGTTTTTATTTCTACGTGATTTTTTTCTTGTTC: 654 a.u.
GAAAAAATATCCTGTGATGTTATTTTATTTTTTTAG: 631 a.u.
GAAGTACGCTGCCATCACGGATAATTCAATTTATAG: 552 a.u.
GAAACCGTCTTTCGTCACCATAAGGGGCAAGGCTAG: 520 a.u.
CTATGTACGAGGGTCCACGGGGTAGCAAGCACATTC: 586 a.u.
GAACCTCTTTTCCACCCCGTGAAAAACAGAATATAG: 652 a.u.
GAAAAGAATAAAAAAATCACCACGAACACACAATAG: 586 a.u.
TGTACGAAGCTATCACATGTGATTATAGTAGTTAGG: 3370 a.u.
GAAGAAAATGTTCATCACCTCCGCTAGTGGCAATAG: 522 a.u.

A few entries again (series 4):
GAAACCGTCTTTCGTCACCATAAGGGGCAAGGCTAG: 520 a.u.
CTATGTACGAGGGTCCACGGGGTAGCAAGCACATTC: 586 a.u.
GAACCTCTTTTCCACCCCGTGAAAAACAGAATATAG: 652 a.u.
GAAAAGAATAAAAAAATCACCACGAACACACAATAG: 586 a.u.
TGTACGAAGCTATCACATGTGATTATAGTAGTTAGG: 3370 a.u.
